{"data": "Results from different studies", "SCTR": "Secretin receptor (SCTR, Homo sapiens, UniProt P47872)", "NMBR": "Neuromedin-B receptor (NMBR, Homo sapiens, UniProt P28336)", "LPAR2": "Lysophosphatidic acid receptor 2 (LPAR2, Homo sapiens, UniProt Q9HBW0)", "note": "Compare with care: the assays were run in different laboratories. ± marks the error that the study gave.", "sequence of UniProt P28336 (whole entry, looked up)": "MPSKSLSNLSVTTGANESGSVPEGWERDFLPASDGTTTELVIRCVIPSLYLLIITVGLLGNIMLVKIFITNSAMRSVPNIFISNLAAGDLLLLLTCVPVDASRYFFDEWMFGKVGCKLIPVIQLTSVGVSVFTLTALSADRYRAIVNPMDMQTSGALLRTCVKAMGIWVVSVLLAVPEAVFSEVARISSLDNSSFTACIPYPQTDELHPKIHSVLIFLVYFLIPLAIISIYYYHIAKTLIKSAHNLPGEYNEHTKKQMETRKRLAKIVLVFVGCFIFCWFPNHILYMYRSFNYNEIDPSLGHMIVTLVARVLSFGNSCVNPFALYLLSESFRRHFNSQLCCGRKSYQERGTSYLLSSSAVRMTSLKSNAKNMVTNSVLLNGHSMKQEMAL", "sequence of UniProt Q9HBW0 (whole entry, looked up)": "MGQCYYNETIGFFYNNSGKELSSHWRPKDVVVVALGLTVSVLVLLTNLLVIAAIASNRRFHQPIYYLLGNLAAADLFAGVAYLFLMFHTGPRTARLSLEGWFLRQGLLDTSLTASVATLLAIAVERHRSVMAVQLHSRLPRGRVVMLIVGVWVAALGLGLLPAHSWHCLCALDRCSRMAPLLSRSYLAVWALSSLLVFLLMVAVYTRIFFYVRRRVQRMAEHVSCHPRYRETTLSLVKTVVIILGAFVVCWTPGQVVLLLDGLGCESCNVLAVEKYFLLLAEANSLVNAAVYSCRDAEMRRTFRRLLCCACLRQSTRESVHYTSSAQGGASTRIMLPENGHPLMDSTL", "sequence of UniProt P47872 (whole entry, looked up)": "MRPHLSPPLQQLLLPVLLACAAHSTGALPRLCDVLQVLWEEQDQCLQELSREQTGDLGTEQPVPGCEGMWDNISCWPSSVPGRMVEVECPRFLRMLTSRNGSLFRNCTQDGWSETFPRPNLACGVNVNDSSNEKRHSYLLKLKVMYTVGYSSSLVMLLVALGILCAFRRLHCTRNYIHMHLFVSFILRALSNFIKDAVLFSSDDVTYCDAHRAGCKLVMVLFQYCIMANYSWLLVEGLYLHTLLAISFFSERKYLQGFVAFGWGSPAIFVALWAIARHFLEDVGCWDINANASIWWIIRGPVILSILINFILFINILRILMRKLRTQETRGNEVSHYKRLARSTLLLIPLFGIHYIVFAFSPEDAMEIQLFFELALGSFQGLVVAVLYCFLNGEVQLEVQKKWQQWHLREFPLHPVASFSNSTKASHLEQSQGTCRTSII", "sequence of UniProt Q9NYK1 (whole entry, looked up)": "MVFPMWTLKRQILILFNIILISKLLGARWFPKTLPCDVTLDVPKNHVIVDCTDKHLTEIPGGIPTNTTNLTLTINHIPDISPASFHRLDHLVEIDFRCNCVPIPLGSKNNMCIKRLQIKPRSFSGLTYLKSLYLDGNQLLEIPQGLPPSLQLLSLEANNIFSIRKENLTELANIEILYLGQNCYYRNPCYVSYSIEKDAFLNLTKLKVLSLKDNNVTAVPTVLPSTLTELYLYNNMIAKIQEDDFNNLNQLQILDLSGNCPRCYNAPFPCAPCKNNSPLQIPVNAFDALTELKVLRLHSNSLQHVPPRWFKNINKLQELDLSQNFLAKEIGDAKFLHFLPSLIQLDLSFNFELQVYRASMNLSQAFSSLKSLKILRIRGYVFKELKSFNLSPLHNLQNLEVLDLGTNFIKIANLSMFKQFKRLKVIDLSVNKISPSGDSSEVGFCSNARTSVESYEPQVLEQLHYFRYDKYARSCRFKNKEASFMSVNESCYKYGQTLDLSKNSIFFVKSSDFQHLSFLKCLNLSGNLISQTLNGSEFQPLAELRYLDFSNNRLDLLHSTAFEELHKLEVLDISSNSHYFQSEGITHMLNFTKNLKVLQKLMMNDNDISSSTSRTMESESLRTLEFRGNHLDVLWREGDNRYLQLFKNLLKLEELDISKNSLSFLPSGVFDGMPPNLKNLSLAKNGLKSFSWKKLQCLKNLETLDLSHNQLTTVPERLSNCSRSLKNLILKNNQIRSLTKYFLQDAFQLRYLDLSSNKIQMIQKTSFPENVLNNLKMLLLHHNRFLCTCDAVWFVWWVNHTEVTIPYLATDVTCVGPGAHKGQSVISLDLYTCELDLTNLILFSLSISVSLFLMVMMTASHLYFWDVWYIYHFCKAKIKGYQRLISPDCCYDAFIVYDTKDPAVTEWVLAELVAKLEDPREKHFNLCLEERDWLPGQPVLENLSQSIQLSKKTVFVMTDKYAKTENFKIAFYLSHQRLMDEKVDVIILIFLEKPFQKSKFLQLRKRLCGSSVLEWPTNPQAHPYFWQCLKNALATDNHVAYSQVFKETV", "sequence of UniProt Q9QXV1 (whole entry, looked up)": "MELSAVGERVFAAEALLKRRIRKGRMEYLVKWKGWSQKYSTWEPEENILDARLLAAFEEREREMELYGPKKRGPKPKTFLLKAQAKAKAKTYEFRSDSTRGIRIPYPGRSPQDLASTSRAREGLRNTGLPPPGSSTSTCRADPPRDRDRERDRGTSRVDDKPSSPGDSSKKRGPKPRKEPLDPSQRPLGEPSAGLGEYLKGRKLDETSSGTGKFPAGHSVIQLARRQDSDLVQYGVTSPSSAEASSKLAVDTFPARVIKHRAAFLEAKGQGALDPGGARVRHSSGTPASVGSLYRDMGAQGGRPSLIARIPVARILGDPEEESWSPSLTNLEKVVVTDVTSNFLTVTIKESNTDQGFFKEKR", "sequence of UniProt P18507 (whole entry, looked up)": "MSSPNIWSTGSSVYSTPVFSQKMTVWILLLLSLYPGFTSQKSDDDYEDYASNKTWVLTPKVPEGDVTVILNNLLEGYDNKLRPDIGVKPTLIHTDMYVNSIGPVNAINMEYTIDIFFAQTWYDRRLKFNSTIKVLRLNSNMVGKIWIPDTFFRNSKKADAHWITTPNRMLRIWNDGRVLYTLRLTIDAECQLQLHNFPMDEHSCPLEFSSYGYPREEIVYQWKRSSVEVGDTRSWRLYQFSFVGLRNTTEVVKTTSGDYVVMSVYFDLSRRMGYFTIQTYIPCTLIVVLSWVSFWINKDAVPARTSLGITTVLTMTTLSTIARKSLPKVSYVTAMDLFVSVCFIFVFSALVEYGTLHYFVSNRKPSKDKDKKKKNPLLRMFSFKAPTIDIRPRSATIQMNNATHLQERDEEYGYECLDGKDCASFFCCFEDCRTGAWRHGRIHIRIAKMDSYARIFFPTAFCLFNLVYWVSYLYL", "sequence of UniProt O14842 (whole entry, looked up)": "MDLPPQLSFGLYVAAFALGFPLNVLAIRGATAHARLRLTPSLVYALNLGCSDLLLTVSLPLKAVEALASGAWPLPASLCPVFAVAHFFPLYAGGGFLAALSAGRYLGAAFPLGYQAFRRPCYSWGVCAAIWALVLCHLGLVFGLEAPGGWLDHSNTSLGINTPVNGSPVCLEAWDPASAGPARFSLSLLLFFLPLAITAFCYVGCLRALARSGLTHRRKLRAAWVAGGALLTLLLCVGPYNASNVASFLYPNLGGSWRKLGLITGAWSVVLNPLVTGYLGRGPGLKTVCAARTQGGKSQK", "sequence of UniProt P43354 (whole entry, looked up)": "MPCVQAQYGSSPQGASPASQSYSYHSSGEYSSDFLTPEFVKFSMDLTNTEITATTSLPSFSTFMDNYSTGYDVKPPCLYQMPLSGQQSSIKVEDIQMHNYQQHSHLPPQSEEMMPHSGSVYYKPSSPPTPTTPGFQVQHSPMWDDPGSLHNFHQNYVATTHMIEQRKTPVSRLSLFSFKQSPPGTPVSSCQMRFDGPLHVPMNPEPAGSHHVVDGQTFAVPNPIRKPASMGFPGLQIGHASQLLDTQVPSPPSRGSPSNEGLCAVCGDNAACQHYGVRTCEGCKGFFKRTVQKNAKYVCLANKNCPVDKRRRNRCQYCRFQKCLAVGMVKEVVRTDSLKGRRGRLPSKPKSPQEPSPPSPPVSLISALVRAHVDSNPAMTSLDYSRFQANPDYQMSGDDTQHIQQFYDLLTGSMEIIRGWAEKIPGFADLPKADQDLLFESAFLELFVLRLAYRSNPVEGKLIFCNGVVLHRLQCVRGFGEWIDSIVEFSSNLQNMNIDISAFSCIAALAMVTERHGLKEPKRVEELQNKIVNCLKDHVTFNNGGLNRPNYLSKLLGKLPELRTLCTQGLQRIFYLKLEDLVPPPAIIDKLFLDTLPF", "sequence of UniProt O43526 (whole entry, looked up)": "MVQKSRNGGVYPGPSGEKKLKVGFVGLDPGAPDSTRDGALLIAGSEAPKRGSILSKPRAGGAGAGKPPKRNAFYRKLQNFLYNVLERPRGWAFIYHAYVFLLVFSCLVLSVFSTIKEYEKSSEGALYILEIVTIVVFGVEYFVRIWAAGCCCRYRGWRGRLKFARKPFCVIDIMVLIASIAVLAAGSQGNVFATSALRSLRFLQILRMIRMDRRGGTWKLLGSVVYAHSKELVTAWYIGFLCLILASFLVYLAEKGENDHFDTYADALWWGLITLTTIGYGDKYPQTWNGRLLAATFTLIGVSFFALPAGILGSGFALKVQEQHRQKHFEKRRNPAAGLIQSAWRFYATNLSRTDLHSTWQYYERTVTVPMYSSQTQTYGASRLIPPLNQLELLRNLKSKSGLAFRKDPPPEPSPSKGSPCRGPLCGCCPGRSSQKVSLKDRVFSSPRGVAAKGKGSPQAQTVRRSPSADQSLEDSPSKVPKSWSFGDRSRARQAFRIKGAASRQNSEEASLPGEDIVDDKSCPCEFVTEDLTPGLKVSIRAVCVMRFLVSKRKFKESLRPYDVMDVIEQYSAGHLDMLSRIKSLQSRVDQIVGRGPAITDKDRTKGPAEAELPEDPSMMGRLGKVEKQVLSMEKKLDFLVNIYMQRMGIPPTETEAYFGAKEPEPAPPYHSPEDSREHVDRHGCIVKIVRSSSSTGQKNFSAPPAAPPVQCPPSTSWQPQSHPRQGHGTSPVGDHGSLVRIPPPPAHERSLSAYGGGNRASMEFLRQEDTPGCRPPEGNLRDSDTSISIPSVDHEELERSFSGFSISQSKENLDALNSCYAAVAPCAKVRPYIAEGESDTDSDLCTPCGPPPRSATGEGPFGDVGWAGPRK"}
{"Structure (SMILES)": "COc1ccc(C(=O)c2c(C(=O)NCCCN(C)C)oc3ccc(Cl)cc3c2=O)cc1OC", "target": "Growth hormone secretagogue receptor type 1 (GHSR, Homo sapiens, UniProt Q92847)", "test": "G protein activation, agonist, BRET", "EC50 [µM]": "> 1"}
{"Structure (SMILES)": "COc1ccc(CCNc2nc(-c3ccccc3)cc(C(F)(F)F)n2)cc1OC", "target": "SCTR", "test": "increase of tracer binding, TR-FRET", "system": "HEK293 membranes", "setting": "added: Fluo-Sec 6 nM", "EC50 [µM]": "18 ± 23"}
{"Structure (SMILES)": "CC[C@H](C)NC(=O)/C(=C\\Nc1ccc(Cl)cc1)C(=O)c1ccccc1Cl", "target": "GABA-A receptor; alpha-1/beta-2/gamma-2 (Homo sapiens, UniProt P14867+P18507+P47870)", "test": "GABA current potentiation, positive modulator, two-electrode voltage clamp", "system": "Xenopus laevis oocytes", "setting": "30 s preincubation, added: GABA EC10", "EC50 [µM]": "0.36 ± 0.05"}
{"Structure (SMILES)": "O=C(N/N=C/c1cccc(O)c1O)c1cccc(Br)c1", "target": "Potassium voltage-gated channel subfamily KQT member 2 (KCNQ2, Homo sapiens, UniProt O43526)", "test": "activator", "setting": "cell-based", "EC50 [µM]": "5.92 ± 0.21"}
{"Structure (SMILES)": "Cc1ccccc1NC(=O)CSc1nc(-c2ccc(Cl)cc2)cc(C(F)(F)F)n1", "target": "SCTR", "test": "increase of tracer binding, TR-FRET", "system": "HEK293 membranes", "setting": "added: Fluo-Sec 6 nM", "EC50 [µM]": "1 ± 0.8"}
{"Structure (SMILES)": "O=C(c1cc2c(s1)CCCCC2)N1CCC(n2c(=O)[nH]c3ccccc32)CC1", "target": "Short transient receptor potential channel 6 (Trpc6, Mus musculus, UniProt Q61143, F640W)", "test": "channel activation, agonist, whole-cell patch clamp", "EC50 [µM]": "0.27 ± 0.05"}
{"Structure (SMILES)": "COc1ccc(CNc2nc(-c3ccccc3OC)cc(C(F)(F)F)n2)cc1", "target": "SCTR", "test": "increase of tracer binding, TR-FRET", "system": "HEK293 membranes", "setting": "added: Fluo-Sec 6 nM", "EC50 [µM]": "2.5 ± 2.1"}
{"Structure (SMILES)": "CCCC[C@H](NC(=O)[C@H](Cc1ccccc1)NC(=O)[C@H](Cc1c[nH]cn1)NC(=O)CCNC(=O)[C@@H](NC(=O)[C@H](C)NC(=O)[C@H](Cc1c[nH]c2ccccc12)NC(=O)[C@H](CC(N)=O)NC(=O)[C@@H](Cc1ccc(O)cc1)NC(=O)[C@@H](CO)NC(=O)[C@H](CO)NC(=O)[C@H](N)CO)C(C)C)C(N)=O", "target": "NMBR", "test": "inositol phosphate generation, agonist", "system": "NCI-H1299 expressing human NMBR", "setting": "45 min, 37 °C", "how to read": "reference: 1 µM neuromedin B", "EC50 [µM]": "0.00316 ± 0.00013"}
{"Structure (SMILES)": "COc1ccc(-c2cc(C(F)(F)F)nc(S(=O)(=O)CCCC(=O)Nc3ccc(F)cc3F)n2)cc1OC", "target": "SCTR", "test": "cAMP, agonist", "EC50 [µM]": 34}
{"Structure (SMILES)": "Cc1sc2cc(Cl)ccc2c1-c1ccc(N2CCO[C@H](CNC3CCC3)C2)c(C(=O)O)c1", "target": "Intermediate conductance calcium-activated potassium channel protein 4 (Kcnn4, Rattus norvegicus, UniProt Q9QYW1)", "test": "channel activity, activator", "EC50 [µM]": 0.393}
{"Structure (SMILES)": "O[C@@H]1Cc2ccccc2[C@H]1NCc1cn2ccc(Br)cc2n1", "target": "D(4) dopamine receptor (DRD4, Homo sapiens, UniProt P21917)", "test": "cAMP, agonist", "EC50 [µM]": 22.1}
{"Structure (SMILES)": "CC=CC(CC(=O)O)c1ccc(OCc2ccc(-c3cc(OC)ccc3F)cc2)cc1 (stereo not shown)", "target": "Free fatty acid receptor 1 (FFAR1, Homo sapiens, UniProt O14842)", "test": "cAMP accumulation, agonist", "system": "COS-7, transiently transfected", "EC50 [µM]": "> 10"}
{"Structure (SMILES)": "CC(C)C[C@@H]1NC(=O)[C@H](Cc2c[nH]cn2)NC(=O)[C@@H](C)NC(=O)[C@H](C(C)C)NC(=O)[C@H](C)NC(=O)[C@H](Cc2c[nH]c3ccccc23)NC(=O)[C@H](CCC(N)=O)NC(=O)[C@H](N)CSSC[C@@H](C(N)=O)NC1=O", "target": "NMBR", "test": "inositol phosphate generation, agonist", "system": "BALB/3T3 expressing human NMBR", "setting": "45 min, 37 °C", "how to read": "reference: 1 µM neuromedin B", "EC50 [µM]": "0.912 ± 0.045"}
{"Structure (SMILES)": "O=P(O)(O)O[C@@H]1[C@@H](O)[C@H](O)[C@H](O)[C@H](O)[C@H]1OP(=O)(O)O", "target": "Inositol 1,4,5-trisphosphate-gated calcium channel ITPR1 (Itpr1, Rattus norvegicus, UniProt P29994)", "test": "calcium signal, agonist", "EC50 [µM]": 5.01}
{"Structure (SMILES)": "CCCCCCCC/C=C\\CCCCCCCC(=O)O[C@H]1CCCO[C@H]1COP(=O)(O)S (stereo partly shown)", "target": "LPAR2", "test": "G protein activation, agonist", "EC50 [µM]": 8.2}
{"Structure (SMILES)": "COc1ccc(-c2cc(C(F)(F)F)nc(SCC(=O)N(C)c3ccccc3)n2)cc1OC", "target": "SCTR", "test": "cAMP, agonist", "EC50 [µM]": 22}
{"Structure (SMILES)": "CN(CCc1ccc(O)c(Br)c1)CCc1nccs1", "target": "5-hydroxytryptamine receptor 2C (HTR2C, Homo sapiens, UniProt P28335)", "EC50 [µM]": 0.00275}
{"Structure (SMILES)": "COc1ccc(-c2cc(C(F)(F)F)nc(S(=O)(=O)CCCC(=O)Nc3ccccc3F)n2)cc1OC", "target": "SCTR", "test": "increase of tracer binding, TR-FRET", "system": "HEK293 membranes", "setting": "added: Fluo-Sec 6 nM", "EC50 [µM]": "7.8 ± 3"}
{"Structure (SMILES)": "CSCC[C@H](NC(=O)[C@H](CC(C)C)NC(=O)[C@H](Cc1cnc[nH]1)NC(=O)CNC(=O)[C@@H](NC(=O)[C@H](C)NC(=O)[C@H](Cc1c[nH]c2ccccc12)NC(=O)[C@H](Cc1cnc[nH]1)NC(=O)[C@H](CC(N)=O)NC(=O)CN)C(C)C)C(N)=O", "target": "NMBR", "test": "inositol phosphate generation, agonist", "system": "BALB/3T3 expressing human NMBR", "setting": "45 min, 37 °C", "how to read": "reference: 1 µM neuromedin B", "EC50 [µM]": "0.0355 ± 0.0025"}
{"Structure (SMILES)": "COc1cccc(-c2cc(C(F)(F)F)nc(NCc3ccccc3)n2)c1", "target": "SCTR", "test": "increase of tracer binding, TR-FRET", "system": "HEK293 membranes", "setting": "added: Fluo-Sec 6 nM", "EC50 [µM]": "11 ± 15"}
{"Structure (SMILES)": "CCCCCCCC/C=C\\CCCCCCCC(=O)OC[C@@H]1OCC=C[C@H]1OP(=O)(O)S (stereo partly shown)", "target": "LPAR2", "test": "G protein activation, agonist", "EC50 [µM]": 1.9}
{"Structure (SMILES)": "CCCCOc1nc(N)c2[nH]c(=O)n(CCCN(CCCN3CCOCC3)Cc3cccc(CC(=O)OC)c3)c2n1", "target": "Toll-like receptor 7 (TLR7, Homo sapiens, UniProt Q9NYK1)", "test": "reporter gene, agonist", "EC50 [µM]": 0.1}
{"Structure (SMILES)": "CCCCCCCC/C=C\\CCCCCCCC(=O)O[C@@H]1C=CCO[C@H]1COP(=O)(O)S (stereo partly shown)", "target": "LPAR2", "test": "G protein activation, agonist", "EC50 [µM]": 1.3}
{"Structure (SMILES)": "O=C(c1ccc(-c2ccc(Cl)cc2)o1)N1CCOc2cc(Cl)ccc21", "target": "Nuclear receptor subfamily 4 group A member 2, ligand binding domain (Homo sapiens, UniProt P43354)", "test": "reporter gene, agonist", "system": "HEK293T, Gal4-Nurr1 hybrid", "EC50 [µM]": 6}
{"Structure (SMILES)": "CN(CCCC[C@H](NC(=O)[C@H](CCCN1CCOCC1)NC(=O)[C@@H](NC(=O)[C@H](Cc1ccccc1)NC(=O)c1ccc(C(C)(C)C)cc1)C1CCC1)C(=O)N[C@@H](CO)C(N)=O)C1CC2CCC1C2 (stereo partly shown)", "target": "Chromobox protein homolog 8 (Cbx8, Mus musculus, UniProt Q9QXV1)", "test": "reporter gene, activator", "system": "mouse embryonic stem cells", "setting": "48 h", "EC50 [µM]": "> 100"}
{"Structure (SMILES)": "CN1CCC(NCCC2(Cc3ccc(Cl)cc3)CCCCC2)CC1", "target": "BAM complex (Escherichia coli)", "test": "OmpT folding, inhibitor", "system": "proteoliposomes", "setting": "added: OmpT and SurA", "EC50 [µM]": 58.3}
{"Structure (SMILES)": "COc1ccc(CNc2nc(-c3ccc(OC)c(OC)c3)cc(C(F)(F)F)n2)cc1", "target": "SCTR", "test": "increase of tracer binding, TR-FRET", "system": "HEK293 membranes", "setting": "added: Fluo-Sec 6 nM", "EC50 [µM]": "2.8 ± 2.6"}
{"Structure (SMILES)": "CCC(CC)N[C@H](Cc1ccccc1)C(=O)N[C@@H](CCC(N)=O)C(=O)N[C@@H](Cc1c[nH]c2ccccc12)C(=O)N[C@@H](C)C(=O)N[C@H](C(=O)N[C@H](C)C(=O)N[C@@H](Cc1c[nH]cn1)C(=O)N[C@@H](CC(C)C)C(=O)N[C@@H](CC(C)C)C(N)=O)C(C)C", "target": "NMBR", "test": "inositol phosphate generation, agonist", "system": "BALB/3T3 (NMBR)", "setting": "45 min, 37 °C", "EC50 [µM]": "0.933 ± 0.014"}
{"note": "Repeated from above:"}
{"Structure (SMILES)": "O=P(O)(O)O[C@@H]1[C@@H](O)[C@H](O)[C@H](O)[C@H](O)[C@H]1OP(=O)(O)O", "target": "Inositol 1,4,5-trisphosphate-gated calcium channel ITPR1 (Itpr1, Rattus norvegicus, UniProt P29994)", "test": "calcium signal, agonist", "EC50 [µM]": 5.01}
{"Structure (SMILES)": "CCCCCCCC/C=C\\CCCCCCCC(=O)O[C@H]1CCCO[C@H]1COP(=O)(O)S (stereo partly shown)", "target": "LPAR2", "test": "G protein activation, agonist", "EC50 [µM]": 8.2}
{"Structure (SMILES)": "COc1ccc(-c2cc(C(F)(F)F)nc(SCC(=O)N(C)c3ccccc3)n2)cc1OC", "target": "SCTR", "test": "cAMP, agonist", "EC50 [µM]": 22}
{"Structure (SMILES)": "CN(CCc1ccc(O)c(Br)c1)CCc1nccs1", "target": "5-hydroxytryptamine receptor 2C (HTR2C, Homo sapiens, UniProt P28335)", "EC50 [µM]": 0.00275}
